Values quoted from earlier work, collected from citations in different studies.
In brackets after ≈: the same amount, converted by molar mass.
Chain of UniProt Q9UHD2 (whole entry, looked up): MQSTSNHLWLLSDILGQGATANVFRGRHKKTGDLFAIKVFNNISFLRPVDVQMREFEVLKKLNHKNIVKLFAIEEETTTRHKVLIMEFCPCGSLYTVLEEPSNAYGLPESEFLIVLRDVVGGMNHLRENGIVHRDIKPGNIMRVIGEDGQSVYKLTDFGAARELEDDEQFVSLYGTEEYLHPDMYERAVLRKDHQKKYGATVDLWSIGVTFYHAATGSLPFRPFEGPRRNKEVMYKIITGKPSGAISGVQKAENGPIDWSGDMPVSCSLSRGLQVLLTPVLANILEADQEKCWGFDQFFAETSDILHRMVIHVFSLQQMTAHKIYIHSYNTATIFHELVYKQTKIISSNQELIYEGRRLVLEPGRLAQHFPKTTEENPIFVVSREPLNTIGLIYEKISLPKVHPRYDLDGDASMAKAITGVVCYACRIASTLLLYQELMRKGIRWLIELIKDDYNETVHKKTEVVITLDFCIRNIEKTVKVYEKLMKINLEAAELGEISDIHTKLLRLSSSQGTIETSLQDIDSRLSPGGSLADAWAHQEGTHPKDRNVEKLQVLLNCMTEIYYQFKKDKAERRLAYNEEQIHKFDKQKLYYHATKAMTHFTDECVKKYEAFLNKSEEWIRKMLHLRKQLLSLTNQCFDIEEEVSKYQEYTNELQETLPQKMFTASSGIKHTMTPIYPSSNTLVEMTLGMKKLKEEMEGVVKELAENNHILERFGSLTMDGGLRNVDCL

FC(F)(F)c1ccc(Oc2ccc(-c3noc(-c4ccc5[nH]ccc5c4)n3)cc2)cc1  MIC (Enterobacter aerogenes; ATCC 35029): > 128 µg/mL
Cc1cc(=O)c(-c2ccc(OCCSc3ccc(C(F)(F)F)cn3)cc2)c(C)[nH]1  IC50 (Plasmodium falciparum; whole cell extended time; 3D7; 72 h): 530 nM
Nc1cc(C(F)(F)F)c(-c2nc(N3CCOCC3)nc(N3CCOCC3)n2)cn1  remaining activity (Serine/threonine-protein kinase TBK1 (TBK1, Homo sapiens, UniProt Q9UHD2); enzyme activity; 10 µM; reference: untreated): 76%
O=C(N[C@H](CO)[C@H](O)c1ccc([N+](=O)[O-])cc1)C(Cl)Cl  MIC (Bacillus subtilis): 1 to 8 µg/mL (≈ 3.09 to 24.8 µM)
CC(C)(O/N=C(\C(=O)N[C@@H]1C(=O)N2C(C(=O)[O-])=C(C[n+]3ccccc3)CS[C@H]12)c1csc(N)n1)C(=O)O  MIC (Klebsiella pneumoniae; clinical isolate RKI-No_95/16): ≤ 2 µg/mL
CCCCCCc1ccc(Oc2ccccc2C)c(O)c1  MIC (Mycobacterium tuberculosis; H37Rv): 3.13 µg/mL (≈ 11 µM)
CCc1c(Cl)c(O)c(Cl)c(O)c1C(=O)O[C@H]1[C@H](O)[C@H](OC)[C@H](OC/C2=C\C=C\C[C@H](O)/C(C)=C/[C@H](CC)[C@@H](O[C@@H]3OC(C)(C)[C@@H](OC(=O)C(C)C)[C@H](O)[C@@H]3O)/C(C)=C/C(C)=C/C[C@@H]([C@@H](C)O)OC2=O)O[C@@H]1C  MIC (Corynebacterium sp.; HM-784): < 0.06 µg/mL
CC1(C)S[C@@H]2[C@H](NC(=O)[C@H](N)c3ccccc3)C(=O)N2[C@H]1C(=O)O  MIC (Pseudomonas aeruginosa; clinical isolate RKI-No_627/13): > 16 µg/mL
Oc1ccc(-c2nc(-c3ccc(OC4CCCC4)cc3)no2)cc1  MIC (Klebsiella pneumoniae; ATCC 700603): > 128 µg/mL
O=C(c1cc(-c2ccccc2O)on1)N1CCN(C(c2ccccc2)c2ccccc2)CC1  IC50 (Plasmodium falciparum; whole cell extended time; 3D7; 72 h): 340 nM
CO[C@H]1/C=C/O[C@@]2(C)Oc3c(C)c(O)c4c(O)c(c(/C=N/N5CCN(C)CC5)c(O)c4c3C2=O)NC(=O)/C(C)=C\C=C\[C@H](C)[C@H](O)[C@@H](C)[C@@H](O)[C@@H](C)[C@H](OC(C)=O)[C@@H]1C  MIC (Staphylococcus aureus): 8 µg/mL (≈ 9.72 µM)
CCc1c(Cl)c(O)c(Cl)c(O)c1C(=O)O[C@H]1[C@H](O)[C@H](OC)[C@H](OC/C2=C\C=C\C[C@H](O)/C(C)=C/[C@H](CC)[C@@H](O[C@@H]3OC(C)(C)[C@@H](OC(=O)C(C)C)[C@H](O)[C@@H]3O)/C(C)=C/C(C)=C/C[C@@H]([C@@H](C)O)OC2=O)O[C@@H]1C  MIC (Fusobacterium nucleatum; HM-992): < 0.06 µg/mL
C[C@H]1COCCN1c1nc(-c2cnc(N)cc2C(F)F)nc(N2CCOCC2)n1  GI50 (J82): 477 nM
Oc1ccc(-c2nc(-c3ccc(OC4CCCC4)cc3)no2)cc1  MIC (Enterobacter aerogenes; ATCC 35029): > 128 µg/mL
COc1ccc2cc3[n+](cc2c1OC)CCc1cc2c(cc1-3)OCO2  MIC (Staphylococcus aureus): 128 µg/mL
CNC(C)C1CCC(N)C(OC2C(N)CC(N)C(OC3OCC(C)(O)C(NC)C3O)C2O)O1 (stereo not shown)  MIC (Acinetobacter baumannii; clinical isolate RKI-No_272/16): > 8 µg/mL
